Experimental data gathered from unrelated publications.
Protocols differ between the studies behind these lines. “And” joins repeats or separate records; there may be more than shown. Numbers after ± are the reported error.

SMILES | cell line | assay | setting | IC50
Cc1ccc(C(C)C)cc1.Oc1ccccc1C=NNC1=Nc2ccccc2-c2[nH]c3ccc(Br)cc3c2C1.[Cl-].[Cl][Ru+] | NCI-N87 | cytotoxicity, MTT | 96 h | 1.1 ± 0.1 µM
CSCC[C@H](NC(=O)[C@H](CC(=O)O)NC(=O)[C@H](CC(C)C)NC(=O)[C@H](CCSC)NC(=O)[C@@H]1CCCN1C(=O)[C@@H](NC(=O)[C@H](Cc1ccc(OP(=O)(O)O)cc1)NC(=O)[C@H](CC(=O)O)NC(=O)[C@@H](NC(=O)[C@H](CO)NC(=O)[C@H](CCC(=O)O)NC(=O)[C@H](CC(=O)O)NC(=O)[C@@H](N)CCCCN)C(C)C)C(C)C)C(=O)N[C@@H](CCCCN)C(=O)N[C@@H](CCCCNC(=O)CNC(=O)[C@H](CCCCN)NC(=O)[C@H](CCCNC(=N)N)NC(=O)[C@H](Cc1ccccc1)NC(=O)[C@H](CCCNC(=N)N)NC(=O)[C@H](CCCNC(=N)N)NC(=O)[C@H](CCCNC(=N)N)NC(=O)[C@H](CO)NC(=O)[C@H](Cc1ccc(O)cc1)NC(=O)[C@H](CO)NC(=O)[C@H](CC(C)C)NC(=O)[C@H](CCCNC(=N)N)NC(=O)[C@@H](N)CCCNC(=N)N)C(N)=O | HPASMC | PDGF-induced Akt phosphorylation, inhibitor, Western blot, refers to: phospho-Akt | 30 min preincubation, serum-free medium, added: PDGF 1 ng/mL, 10 min | 22.6 µM
Cc1nn(-c2ccc(S(=O)(=O)N[C@@H](CO)CC(C)C)cc2)c2nn3nnnc3nc12 | HT-29 | cell growth or viability, MTT | 72 h | 0.22 µM
Cc1cc(C#N)cc(C)c1Oc1cc(Nc2ccc(C#N)cc2)nc2ccncc12 | S102 |  | 48 h | > 128 µM
Cc1c(C)n(-c2c(C(C)C)cccc2C(C)C)c(=[Se])n1-c1c(C(C)C)cccc1C(C)C.[Cl][Ag] | H157 lung carcinoma cells | cell viability, MTT | 72 h | 1 ± 0.4 µM
O=C(OCc1cccc(O)c1O)c1ccc(O)c(CO)c1 | mouse PBMC | oxidative burst, lucigenin chemiluminescence | added: fMLP 10 µM | 1.52 µM
c1ccc(-c2cc(-c3ccc(-n4cc(-c5ccc6sc7ccccc7c6c5)nn4)cc3)cc(-c3ccccn3)n2)nc1 | NHDF normal human fibroblasts | cytotoxicity, MTS | 72 h | > 25 µM
Oc1ccc(C(=NNc2ccccc2)c2ccc(O)cc2)cc1 | SNU-1 (KRAS G12D) | cell viability, CellTiter-Glo | 72 h | 26.6 ± 9.9 µM
C=C(C)[C@H]1CC[C@@]2(C)CC[C@]3(C)C[C@H]4[C@@H](C)CC[C@H]4/C(C)=C\C[C@H]3[C@H]12 | CT26 | cell growth or viability, MTT | 72 h | 409 µM
CN1CCC(N[C@@H]2CCc3[nH]c4c(C(N)=O)ccc(-c5ccccc5Cl)c4c3C2)CC1 | colorectal cancer organoid sample B | cell growth, CellTiter-Glo | 6 days | 0.0033 µM
CC(=O)Oc1ccc(/C=C/C(=O)Nc2nc(=O)n([C@@H]3O[C@H](C)[C@@H](OC(C)=O)[C@H]3OC(C)=O)cc2F)c(OC(C)=O)c1 | ASPC1 | cell growth or viability, MTT | 72 h | 81.5 µM
CCNc1cc2c(cc1C)C1(c3cc(C)c(NCC)cc3O2)c2ccccc2C(=O)N1N=Cc1c[c-]c(-c2ccccn2)cc1.Cc1c(C)c(-c2ccc(-c3ccccc3)cc2)[c-](C)c1C.[Cl-].[Ir+3] | BEAS-2B | cell growth, MTT | 24 h | 20 ± 0.7 µM
C[S+](C)([O-])[Pt-2]([Cl])([Cl])[N+](=Cc1ccc[nH]1)Cc1ccccc1 | MCF-12A | cell growth or viability, MTT | 24 h | > 100 µg/mL
C=C(C)C(=O)Nc1ccc(-c2c(-c3ccc(Oc4cccc(C)n4)cc3)c3c(N)ncnc3n2C)cc1 | JMSU-1 | cell growth or viability, ATP luminescence | 96 h | 0.4 µM
N=C(N/N=C/c1cc(C(F)(F)F)cc(C(F)(F)F)c1)N/N=C/c1cc(C(F)(F)F)cc(C(F)(F)F)c1 | hTERT-HPNE | cell growth, crystal violet | 72 h | 375 ± 30 µM
Nc1nc2cnc(C(=O)N3CCOC[C@@H]3c3ccc(C(F)(F)F)cc3)cc2c2c1COC2 | HCT-116 MTAP-deleted |  | 144 h | 0.107 µM
CC(C)=CCc1c2c(c(O)c3c(=O)c(-c4ccc(O)cc4)coc13)C=CC(C)(C)O2 | KKU100 | cell growth or viability, MTT | 24 h | 21.6 µM
Cc1ccc(CNC(=O)C(CCc2ccccc2)NC(=O)C(NC(=O)c2ccc(OCc3ccc(C(C)(C)C)cc3)cc2)C(C)O)cc1 (centres unmarked) | WSUDLCL2 | proteasome β5 activity, inhibitor, Proteasome-Glo β5 | 1 h | 0.32 ± 0.12 µM
COc1cc(N(C)CCN(C)C)c(NC(=O)/C=C/c2ccc(Cl)cc2)cc1Nc1nccc(-c2cn(C)c3ccccc23)n1 | NCI-H1975 | cell growth or viability, MTT | 72 h | 0.251 µM
Cc1cc(C#N)cc(C)c1Oc1cc(Nc2ccc(C#N)cn2)nc2cnccc12 | S102 |  | 48 h | > 127 µM
O=C(Nc1ccc(F)cc1)c1ccccc1-n1c(=O)[nH]c2ccccc2c1=O | B16-F10 | cell growth or viability, MTT | 24 h | 25.8 µM
CN1CCC2(CC1)C/C(=N\NC(=O)Nc1ccccc1)c1ccccc1O2 | MCF7, HCT-116, PC-3, A549 | cell growth, MTT | range over cell lines | 1.15 to 9.09 µM

SMILES | cell line | assay | setting | IC50
Cc1ccc(Nc2ccn3ncc(-c4ccc5c(c4)CN([C@H]4CCC(=O)NC4=O)C5=O)c3n2)cc1Cl | MOLM-13 | cell growth, CellTiter luminescence | 72 h | > 0.1 µM
CCC(C)C1OC(=O)C(C)(C)C(=O)C(Cc2ccccc2)OC(=O)C(C(C)C)OC(=O)C(NC(=O)c2cccc(O)c2)C(C)OC1=O (centres unmarked) | HCT-8 | cell viability, CCK-8 | 72 h | > 20 µM
[Cl][Pt-]1([Cl])[S]C(Nc2ccccc2)=N[N+]1=Cc1cccs1 | HEL human lung fibroblasts | cell proliferation |  | 6 µM
Cc1ccc(F)cc1NS(=O)(=O)c1cccc(/C=C/C(=O)NO)c1 | MOPC-315 | cell growth | 24 h | 0.38 ± 0.073 µM
CC1=C2[O][Ru-]([Cl])[O+]=C2C=CN1CCCCCCCCCCCCN1C=CC2=[O+][Ru-]([Cl])[O]C2=C1C.Cc1ccc(C(C)C)cc1.Cc1ccc(C(C)C)cc1 | A-427 | cell growth or viability, crystal violet | 96 h | 10.4 µM
COc1cc(OC)cc(C2=C3C(C)=C(I)C(C)=[N+]3[B-](F)(F)n3c(/C=C/c4cccs4)c(I)c(C)c32)c1 | HEp-2 | cell growth or viability, resazurin | 24 h, dark | > 400 µM
O=C(/C=C/c1cccc(S(=O)(=O)Nc2ccc(Cl)cc2F)c1)NO | MOPC-315 | cell growth | 24 h | 1.03 ± 0.469 µM
C=CC(=O)Nc1cc(Nc2nccc(-c3c(-c4ccc5ccccc5c4)n(C)c4ccccc34)n2)c(OC)cc1N(C)CCN(C)C | NCI-H1975 | cell growth or viability, MTT | 72 h | 0.266 µM
COC(=O)[C@H]1[C@H]2C[C@H]3O[C@@]4(CCN3C[C@H]2C[C@@H](OC(=O)c2cc(OC)c(OC)c(OC)c2)[C@@H]1OC)C(=O)Nc1cc(OC)ccc14 | NALM-6 | cell growth or viability, trypan blue | 72 h | 24.4 µM
C=CC(=O)Nc1ccc(F)c(-c2ncnc3[nH]cc(C(=O)OCC)c23)c1 | mouse CD4 T-cell blasts | CD25 upregulation | 24 h, added: IL-2 | 0.0031 µM
COc1ccc(-c2nn(-c3ccccc3)cc2/C=C(\C#N)c2nc3ccccc3[nH]2)cc1 | ASPC1 | cell growth or viability, ATP luminescence | 72 h | 62.4 µM
CC[C@H](CC[C@@H](C)[C@H]1CC[C@H]2[C@@H]3[C@@H](O)C=C4C[C@@H](O)CC[C@]4(C)[C@H]3CC[C@]12C)C(C)C | SCM-1 | cytotoxicity, MTT |  | > 30 µM
CC/C(=C(\c1ccccc1)c1ccc(OCCN(C)CCCCCCC(=O)NCCc2c[nH]c3ccc(OC)cc23)cc1)c1ccccc1 | HT-1080 | cell survival, MTT | day 9, dosed days 2, 4, 7 | 5.7 µM
[Ru+2].c1ccc(-c2cccc(-c3ccccn3)n2)nc1.c1ccc2nc(-c3ccc4ccccc4n3)ccc2c1.c1ccncc1 | HL-60 | cell growth or viability | dark | 30.8 µM and ~30 µM
COc1cc(OC)cc(C2=C3C(C)=C(I)C(/C=C/c4c[nH]c5ccccc45)=[N+]3[B-](F)(F)n3c(/C=C/c4c[nH]c5ccccc45)c(I)c(C)c32)c1 | HEp-2 | phototoxicity, CellTiter-Blue | added: light 1.5 J/cm^2 | > 100 µM
COC(=O)[C@H]1[C@H]2C[C@H]3O[C@@]4(CCN3C[C@H]2C[C@@H](OC(=O)c2cc(OC)c(OC)c(OC)c2)[C@@H]1OC)C(=O)Nc1cc(OC)c(-c2ccc(C(F)(F)F)cc2)cc14 | NALM-6 | cell growth or viability, trypan blue | 72 h | 1.79 µM
CCN1CCC2(CC1)C/C(=N\NC(=O)Nc1ccc(Cl)cc1)c1ccccc1O2 | MCF7, HCT-116, PC-3, A549 | cell growth, MTT | range over cell lines | 21.7 to 47.7 µM
CSc1nc(Nc2ccc(C(=O)N/N=C/c3ccc(Cl)cc3)cc2)c(C#N)c(-c2ccccc2)n1 | HCT-116 and MCF7 | cell growth, MTT | range over compound group | 9.25 to 15.3 µM
CC(C)(CCCC/C=C/CCCCCC(C)(C)C(=O)O)C(=O)O | mouse primary hepatocytes | cholesterol biosynthesis | 4 h, added: [14C]-citrate | 5.53 ± 2.49 µM
CC1(C)c2ccccc2-c2ccc(-c3cn(-c4ccc(-c5cc(-c6ccccn6)nc(-c6ccccn6)c5)cc4)nn3)cc21 | NHDF normal human fibroblasts | cytotoxicity, MTS | 72 h | > 25 µM
[Ru+2].c1ccc(-c2cccc(-c3ccccn3)n2)nc1.c1cnc(-c2cnccn2)cn1.c1cnccn1 | HL-60 | cell viability | added: light 22 J/cm^2 | 24.2 ± 2.1 µM
COc1cc(OC)cc(C2=C3C(C)=C(I)C(C)=[N+]3[B-](F)(F)n3c(/C=C/c4c[nH]c5ccccc45)c(I)c(C)c32)c1 | HEp-2 | phototoxicity, CellTiter-Blue | added: light 1.5 J/cm^2 | 2 µM

Repeated from above:
SMILES | cell line | assay | setting | IC50
CCNc1cc2c(cc1C)C1(c3cc(C)c(NCC)cc3O2)c2ccccc2C(=O)N1N=Cc1c[c-]c(-c2ccccn2)cc1.Cc1c(C)c(-c2ccc(-c3ccccc3)cc2)[c-](C)c1C.[Cl-].[Ir+3] | BEAS-2B | cell growth, MTT | 24 h | 20 ± 0.7 µM
COC(=O)[C@H]1[C@H]2C[C@H]3O[C@@]4(CCN3C[C@H]2C[C@@H](OC(=O)c2cc(OC)c(OC)c(OC)c2)[C@@H]1OC)C(=O)Nc1cc(OC)ccc14 | NALM-6 | cell growth or viability, trypan blue | 72 h | 24.4 µM
CN1CCC2(CC1)C/C(=N\NC(=O)Nc1ccccc1)c1ccccc1O2 | MCF7, HCT-116, PC-3, A549 | cell growth, MTT | range over cell lines | 1.15 to 9.09 µM
C=C(C)[C@H]1CC[C@@]2(C)CC[C@]3(C)C[C@H]4[C@@H](C)CC[C@H]4/C(C)=C\C[C@H]3[C@H]12 | CT26 | cell growth or viability, MTT | 72 h | 409 µM
Cc1c(C)n(-c2c(C(C)C)cccc2C(C)C)c(=[Se])n1-c1c(C(C)C)cccc1C(C)C.[Cl][Ag] | H157 lung carcinoma cells | cell viability, MTT | 72 h | 1 ± 0.4 µM
O=C(/C=C/c1cccc(S(=O)(=O)Nc2ccc(Cl)cc2F)c1)NO | MOPC-315 | cell growth | 24 h | 1.03 ± 0.469 µM
Cc1ccc(C(C)C)cc1.Oc1ccccc1C=NNC1=Nc2ccccc2-c2[nH]c3ccc(Br)cc3c2C1.[Cl-].[Cl][Ru+] | NCI-N87 | cytotoxicity, MTT | 96 h | 1.1 ± 0.1 µM
